Results of several laboratories.
Lines come from different studies, so protocols differ. ± marks the error that the study gave.
gag-pol reverse transcriptase: Gag-Pol polyprotein, reverse transcriptase (gag-pol, Human immunodeficiency virus type 1 group M subtype B, UniProt P04585)
gag-pol protease: Gag-Pol polyprotein, protease (gag-pol, Human immunodeficiency virus type 1 group M subtype B, UniProt P04585)

SMILES	target	assay	system	setting	quantity	result
CCCc1c2c(nc3c1c(C#N)cn3C1CCCCC1)CCC2=O	gag-pol reverse transcriptase	enzyme activity, inhibitor			IC50	no inhibition
O=C(O)C1=CC(=C(c2ccc(O)c(C(=O)O)c2)c2ccc(O)c(C(=O)O)c2)C=CC1=O	Gag-Pol polyprotein, reverse transcriptase (gag-pol, Human immunodeficiency virus type 1 group M subtype B, UniProt P04585, L797W/M628L/T802Y)		HIV-1		IC50	355 ± 23 nM
Cc1ccc(-c2cnc3c(c2)c(C#N)cn3Cc2ccccc2)cc1	gag-pol reverse transcriptase	enzyme activity, inhibitor			IC50	no inhibition
Cc1cn([C@H]2C=C[C@@H](COP(=O)(O)OP(=O)(O)OP(=O)(O)O)O2)c(=O)[nH]c1=O	gag-pol reverse transcriptase	inhibitor	HIV-1		IC50	4520 ± 1160 nM
CC(C)CN(C[C@@H](O)[C@H](Cc1cc(F)cc(F)c1)NC(=O)O[C@H]1C[C@@H]2C[C@H]3[C@H](OC[C@H]31)O2)S(=O)(=O)c1ccc2nc(NC3CC3)sc2c1	gag-pol protease	enzyme activity, inhibitor			Ki	0.021 nM
Cc1cccc(C)c1OCC(=O)N[C@@H](Cc1ccccc1)[C@H](O)C(=O)N1CSC(C)(C)[C@H]1C(=O)N[C@H]1c2ccccc2C[C@H]1O	gag-pol protease	denaturation shift, tryptophan fluorescence		pH 5.0, added: GdnHCl	Kd	0.063 nM
COc1ccc(S(=O)(=O)N(CC(C)C)C[C@@H](O)[C@H](Cc2ccccc2)NC(=O)O[C@@H]2CCC[C@@]23CCO[C@@H](c2ccccc2)C3)cc1	gag-pol protease	enzyme activity, inhibitor, fluorometric			Ki	51.3 nM
Cc1cc(/C=C/C#N)cc(C)c1Nc1ccnc(Nc2ccc(C#N)cc2)n1	gag-pol reverse transcriptase	enzyme activity, inhibitor		30 min, room temperature	EC50	120 ± 60 nM

A few entries again:
SMILES	target	assay	system	setting	quantity	result
CCCc1c2c(nc3c1c(C#N)cn3C1CCCCC1)CCC2=O	gag-pol reverse transcriptase	enzyme activity, inhibitor			IC50	no inhibition
